Published values from different studies.
Compare with care: the assays were run in different laboratories. ± gives the spread as reported.
Broad substrate specificity ATP-binding cassette transporter ABCG2: Broad substrate specificity ATP-binding cassette transporter ABCG2 (Mus musculus, UniProt Q7TMS5)
Sequence of UniProt Q7TMS5 (whole entry, looked up): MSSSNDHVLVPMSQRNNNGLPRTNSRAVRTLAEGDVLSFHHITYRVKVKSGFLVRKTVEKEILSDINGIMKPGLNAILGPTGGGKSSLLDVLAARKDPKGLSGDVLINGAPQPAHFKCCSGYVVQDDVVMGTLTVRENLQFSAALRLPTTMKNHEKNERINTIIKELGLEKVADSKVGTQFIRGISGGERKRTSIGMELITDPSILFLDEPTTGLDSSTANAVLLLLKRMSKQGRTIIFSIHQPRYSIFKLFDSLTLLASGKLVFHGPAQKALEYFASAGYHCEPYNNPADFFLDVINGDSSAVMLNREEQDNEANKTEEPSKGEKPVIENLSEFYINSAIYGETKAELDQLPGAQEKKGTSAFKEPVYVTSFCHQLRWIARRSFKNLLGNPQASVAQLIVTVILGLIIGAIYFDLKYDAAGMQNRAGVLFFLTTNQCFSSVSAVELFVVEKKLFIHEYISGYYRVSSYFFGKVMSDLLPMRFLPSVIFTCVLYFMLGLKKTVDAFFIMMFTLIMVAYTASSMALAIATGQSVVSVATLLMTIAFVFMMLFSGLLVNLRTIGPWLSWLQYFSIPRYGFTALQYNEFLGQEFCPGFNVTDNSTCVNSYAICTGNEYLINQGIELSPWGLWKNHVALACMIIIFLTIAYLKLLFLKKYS
CYP2B6: Cytochrome P450 2B6 (CYP2B6, Homo sapiens, UniProt P20813)
Sequence of UniProt P20813 (whole entry, looked up): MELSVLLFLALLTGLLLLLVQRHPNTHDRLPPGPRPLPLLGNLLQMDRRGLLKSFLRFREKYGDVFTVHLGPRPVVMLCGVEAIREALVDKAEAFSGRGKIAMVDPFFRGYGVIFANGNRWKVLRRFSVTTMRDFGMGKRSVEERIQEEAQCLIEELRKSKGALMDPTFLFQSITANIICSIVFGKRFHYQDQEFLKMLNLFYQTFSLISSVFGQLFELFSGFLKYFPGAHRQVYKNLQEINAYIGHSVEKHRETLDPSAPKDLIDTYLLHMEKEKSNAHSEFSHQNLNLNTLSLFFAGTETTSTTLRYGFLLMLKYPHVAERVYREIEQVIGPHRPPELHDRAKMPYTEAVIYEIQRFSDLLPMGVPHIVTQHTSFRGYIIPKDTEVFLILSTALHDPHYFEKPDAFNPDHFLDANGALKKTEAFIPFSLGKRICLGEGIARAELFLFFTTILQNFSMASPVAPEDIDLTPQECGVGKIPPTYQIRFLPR
Sequence of UniProt P10632 (whole entry, looked up): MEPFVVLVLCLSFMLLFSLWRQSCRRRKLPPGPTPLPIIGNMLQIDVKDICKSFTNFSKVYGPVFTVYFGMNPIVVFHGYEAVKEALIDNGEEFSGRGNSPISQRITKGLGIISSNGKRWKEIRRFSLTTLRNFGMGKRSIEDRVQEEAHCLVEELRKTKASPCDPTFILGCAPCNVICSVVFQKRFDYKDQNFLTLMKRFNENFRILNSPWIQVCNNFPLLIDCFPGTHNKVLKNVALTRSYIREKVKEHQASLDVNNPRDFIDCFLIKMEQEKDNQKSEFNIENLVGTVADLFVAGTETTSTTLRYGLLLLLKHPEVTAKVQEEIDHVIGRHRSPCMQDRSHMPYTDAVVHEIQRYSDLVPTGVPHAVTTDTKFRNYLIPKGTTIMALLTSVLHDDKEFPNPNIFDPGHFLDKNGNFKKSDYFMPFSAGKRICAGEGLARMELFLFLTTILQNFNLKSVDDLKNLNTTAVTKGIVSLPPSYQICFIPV
Sequence of UniProt P11509 (whole entry, looked up): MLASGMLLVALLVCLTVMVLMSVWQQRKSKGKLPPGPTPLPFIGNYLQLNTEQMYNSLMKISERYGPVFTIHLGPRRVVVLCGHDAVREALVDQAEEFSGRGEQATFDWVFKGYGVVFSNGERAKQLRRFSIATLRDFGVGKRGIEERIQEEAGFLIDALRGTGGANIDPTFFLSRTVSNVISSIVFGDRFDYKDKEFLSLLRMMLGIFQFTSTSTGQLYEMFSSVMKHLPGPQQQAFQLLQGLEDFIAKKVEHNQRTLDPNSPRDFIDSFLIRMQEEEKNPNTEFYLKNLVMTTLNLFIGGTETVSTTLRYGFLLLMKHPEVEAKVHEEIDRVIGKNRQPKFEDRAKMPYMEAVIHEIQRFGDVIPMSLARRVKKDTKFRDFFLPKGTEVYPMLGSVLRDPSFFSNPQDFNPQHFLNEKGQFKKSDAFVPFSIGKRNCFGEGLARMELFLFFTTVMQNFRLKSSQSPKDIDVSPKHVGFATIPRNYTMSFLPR

The Kd of `CN(C)CC/C=C1\c2ccccc2CSc2ccccc21` is reported as 84.7 µM (alpha-1-acid glycoprotein (human); isothermal titration calorimetry; pH 7.4, 30 °C, heterogeneous AGP preparation).
`Cc1ccc(Nc2nccc(N(C)c3ccc4c(C)n(C)nc4c3)n2)cc1S(N)(=O)=O` gave an efflux ratio of 2.3 (Broad substrate specificity ATP-binding cassette transporter ABCG2; bidirectional transport; MDCK-Bcrp1 (murine Bcrp1); 5 µM, 240 min, with: canertinib).
With `Cc1coc2c1CC[C@@H](C)C2` the remaining activity was 104 ± 3% (Cytochrome P450 2A6 (CYP2A6, Homo sapiens, UniProt P11509); inactivator; 5 µM, 0 min, pH 7.4, 30 °C, with: NADPH, semicarbazide 10 mM).
For `O=C1Nc2ccc(Cl)cc2[C@@](C#CC2CC2)(C(F)(F)F)O1`, the inhibition was 90% (CYP2B6; enzyme activity, inhibitor, measured: 4-hydroxylation; pooled human liver microsomes; 10 µM, pH 7.4, with: bupropion 50 µM).
`O=C1Nc2c(O)cc(Cl)cc2[C@@](C#CC2CC2)(C(F)(F)F)O1` gave a Km of 3.6 ± 1.7 µM (CYP2B6; substrate; product formation, recombinant).
`O=C(C=C(O)c1cc(Cc2c(F)cccc2F)cn(Cc2ccccc2F)c1=O)C(=O)NN1CCCC1=O` gave an IC50 of greater than 300 µM (human UGT1A1, 1A6, 1A9, 2B7; competitive inhibitor; human liver microsomes; 15 min, pH 7.4, with: 4-methylumbelliferone 200 µM).
For `CC[C@H](C)[C@H](NC(=O)[C@H](CCC(=O)O)NC(=O)[C@H](CO)NC(=O)[C@@H](NC(=O)[C@@H](N)CO)C(C)C)C(=O)N[C@@H](CCC(N)=O)C(=O)N[C@@H](CC(C)C)C(=O)N[C@@H](CCSC)C(=O)N[C@@H](Cc1cnc[nH]1)C(=O)N[C@@H](CC(N)=O)C(=O)N[C@@H](CC(C)C)C(=O)NCC(=O)N[C@@H](CCCCN)C(=O)N[C@@H](Cc1cnc[nH]1)C(=O)N[C@@H](CC(C)C)C(=O)N[C@@H](CC(N)=O)C(=O)N[C@@H](CO)C(=O)N[C@@H](CCSC)C(=O)N[C@@H](CCC(=O)O)C(=O)N[C@@H](CCCN=C(N)N)C(=O)N[C@H](C(=O)N[C@@H](CCC(=O)O)C(=O)N[C@@H](Cc1c[nH]c2ccccc12)C(=O)N[C@@H](CC(C)C)C(=O)N[C@@H](CCCN=C(N)N)C(=O)N[C@@H](CCCCN)C(=O)N[C@@H](CCCCN)C(=O)N[C@@H](CC(C)C)C(=O)N[C@@H](CCC(N)=O)C(=O)N[C@@H](CC(=O)O)C(=O)N[C@H](C(=O)N[C@@H](Cc1cnc[nH]1)C(=O)N[C@@H](CC(N)=O)C(=O)N[C@@H](Cc1ccccc1)C(=O)O)C(C)C)C(C)C`, “remaining intact compound” read 0% (Chymotrypsinogen A, activated (chymotrypsin) (Bos taurus, UniProt P00766); substrate, HPLC-UV; 60 min, pH 6.5, 37 °C, without trypsin inhibitor).
With `CCCCC/C=C\C/C=C\C/C=C\C/C=C\CCCC(=O)O` the inhibition was 75% (cytochrome P450 enzymes; M1 formation, inhibitor; pooled human intestinal microsomes; 500 µM, 5 min, pH 7.4, substrate named only as label, with: 3 µM substrate).
For `CC1=N[C@]2(C(=O)CO)[C@@H](C[C@H]3[C@@H]4C[C@@H](O)C5=CC(=O)C=C[C@]5(C)[C@H]4[C@@H](O)C[C@@]32C)O1`, the IC50 was greater than 50 µM (Cytochrome P450 2C8 (CYP2C8, Homo sapiens, UniProt P10632); pooled human liver microsomes; 30 min preincubation, with: paclitaxel probe and NADPH).
The Tmax of `O=C(O)c1cc(/N=N/c2ccc(S(=O)(=O)Nc3ccccn3)cc2)ccc1O` is reported as 30 min (Broad substrate specificity ATP-binding cassette transporter ABCG2; FVB mouse, plasma; oral, 20 mg/kg).

For quick reference, copied from above:
`Cc1ccc(Nc2nccc(N(C)c3ccc4c(C)n(C)nc4c3)n2)cc1S(N)(=O)=O` gave an efflux ratio of 2.3 (Broad substrate specificity ATP-binding cassette transporter ABCG2; bidirectional transport; MDCK-Bcrp1 (murine Bcrp1); 5 µM, 240 min, with: canertinib).
With `Cc1coc2c1CC[C@@H](C)C2` the remaining activity was 104 ± 3% (Cytochrome P450 2A6 (CYP2A6, Homo sapiens, UniProt P11509); inactivator; 5 µM, 0 min, pH 7.4, 30 °C, with: NADPH, semicarbazide 10 mM).
